Measurements pooled from the literature.
Compare with care: the assays were run in different laboratories. ± gives the spread as reported.
CHRM1: Muscarinic acetylcholine receptor M1 (CHRM1, Homo sapiens, UniProt P11229)
UniProt P11229, sequence (whole entry, looked up): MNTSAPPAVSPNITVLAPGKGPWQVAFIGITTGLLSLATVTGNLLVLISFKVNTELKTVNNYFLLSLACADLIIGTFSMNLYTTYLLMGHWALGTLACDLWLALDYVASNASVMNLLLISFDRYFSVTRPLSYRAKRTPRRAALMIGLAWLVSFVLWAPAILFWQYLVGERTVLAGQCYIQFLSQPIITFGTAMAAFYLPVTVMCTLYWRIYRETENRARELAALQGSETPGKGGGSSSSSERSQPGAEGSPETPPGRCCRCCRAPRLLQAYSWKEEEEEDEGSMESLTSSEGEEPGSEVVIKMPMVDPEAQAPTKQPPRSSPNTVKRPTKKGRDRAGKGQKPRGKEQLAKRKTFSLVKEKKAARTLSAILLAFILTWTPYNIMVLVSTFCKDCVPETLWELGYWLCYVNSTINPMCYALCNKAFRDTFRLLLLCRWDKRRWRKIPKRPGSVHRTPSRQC
CASP3: Caspase-3 (CASP3, Homo sapiens, UniProt P42574)
UniProt P42574, sequence (whole entry, looked up): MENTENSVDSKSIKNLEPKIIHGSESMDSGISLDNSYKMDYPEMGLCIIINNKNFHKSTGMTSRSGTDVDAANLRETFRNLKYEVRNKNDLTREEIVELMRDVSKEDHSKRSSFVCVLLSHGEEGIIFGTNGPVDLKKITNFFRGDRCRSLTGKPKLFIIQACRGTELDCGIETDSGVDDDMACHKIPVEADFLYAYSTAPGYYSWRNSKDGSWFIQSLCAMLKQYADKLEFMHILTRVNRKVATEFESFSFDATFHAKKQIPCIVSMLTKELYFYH
SLC10A2: Ileal sodium/bile acid cotransporter (SLC10A2, Homo sapiens, UniProt Q12908)
UniProt Q12908, sequence (whole entry, looked up): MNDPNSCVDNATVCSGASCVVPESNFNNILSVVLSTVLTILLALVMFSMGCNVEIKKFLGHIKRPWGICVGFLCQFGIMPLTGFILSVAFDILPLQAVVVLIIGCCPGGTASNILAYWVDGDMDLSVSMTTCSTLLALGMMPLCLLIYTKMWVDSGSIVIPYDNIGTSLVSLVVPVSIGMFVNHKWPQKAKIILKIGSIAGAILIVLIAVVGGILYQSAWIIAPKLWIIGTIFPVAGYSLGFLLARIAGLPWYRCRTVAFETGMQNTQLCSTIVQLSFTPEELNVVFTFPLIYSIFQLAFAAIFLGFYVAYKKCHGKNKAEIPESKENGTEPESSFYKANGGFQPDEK
CHRM3: Muscarinic acetylcholine receptor M3 (CHRM3, Homo sapiens, UniProt P20309)
UniProt P20309, sequence (whole entry, looked up): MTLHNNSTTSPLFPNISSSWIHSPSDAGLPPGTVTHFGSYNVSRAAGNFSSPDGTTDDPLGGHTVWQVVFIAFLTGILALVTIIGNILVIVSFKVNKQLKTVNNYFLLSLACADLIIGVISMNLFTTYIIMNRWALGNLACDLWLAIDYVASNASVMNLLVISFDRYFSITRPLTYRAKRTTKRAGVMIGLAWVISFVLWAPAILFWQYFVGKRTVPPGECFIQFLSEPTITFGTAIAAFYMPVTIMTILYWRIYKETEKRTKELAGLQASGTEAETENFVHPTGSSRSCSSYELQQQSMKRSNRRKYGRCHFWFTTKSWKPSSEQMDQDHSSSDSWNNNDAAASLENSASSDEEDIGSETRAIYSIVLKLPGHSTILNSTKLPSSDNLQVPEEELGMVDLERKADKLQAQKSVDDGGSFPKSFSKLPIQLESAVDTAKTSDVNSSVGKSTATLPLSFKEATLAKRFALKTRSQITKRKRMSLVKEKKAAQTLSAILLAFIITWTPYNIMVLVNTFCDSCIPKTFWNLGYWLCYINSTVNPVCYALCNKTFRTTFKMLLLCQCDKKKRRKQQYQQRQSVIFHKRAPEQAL
Hypoxanthine-guanine phosphoribosyltransferase: Hypoxanthine-guanine phosphoribosyltransferase (Trypanosoma cruzi, UniProt Q4DGA3)
CHRM5: Muscarinic acetylcholine receptor M5 (CHRM5, Homo sapiens, UniProt P08912)
UniProt P08912, sequence (whole entry, looked up): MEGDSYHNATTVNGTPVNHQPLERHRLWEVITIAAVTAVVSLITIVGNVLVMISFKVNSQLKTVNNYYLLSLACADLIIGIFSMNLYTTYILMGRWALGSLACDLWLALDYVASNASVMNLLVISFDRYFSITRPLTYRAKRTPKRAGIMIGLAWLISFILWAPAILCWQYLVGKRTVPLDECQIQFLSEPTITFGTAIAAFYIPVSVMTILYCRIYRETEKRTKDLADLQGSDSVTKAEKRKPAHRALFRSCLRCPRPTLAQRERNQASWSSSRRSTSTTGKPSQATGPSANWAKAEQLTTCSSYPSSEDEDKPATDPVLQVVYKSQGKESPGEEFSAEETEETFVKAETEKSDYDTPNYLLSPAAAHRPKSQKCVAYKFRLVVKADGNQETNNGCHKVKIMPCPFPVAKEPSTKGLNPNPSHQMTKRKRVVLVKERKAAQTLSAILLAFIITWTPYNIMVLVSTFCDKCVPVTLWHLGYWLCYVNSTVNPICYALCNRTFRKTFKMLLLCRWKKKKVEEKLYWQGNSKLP
PTPN1: Tyrosine-protein phosphatase non-receptor type 1 (PTPN1, Homo sapiens, UniProt P18031)
UniProt P18031, sequence (whole entry, looked up): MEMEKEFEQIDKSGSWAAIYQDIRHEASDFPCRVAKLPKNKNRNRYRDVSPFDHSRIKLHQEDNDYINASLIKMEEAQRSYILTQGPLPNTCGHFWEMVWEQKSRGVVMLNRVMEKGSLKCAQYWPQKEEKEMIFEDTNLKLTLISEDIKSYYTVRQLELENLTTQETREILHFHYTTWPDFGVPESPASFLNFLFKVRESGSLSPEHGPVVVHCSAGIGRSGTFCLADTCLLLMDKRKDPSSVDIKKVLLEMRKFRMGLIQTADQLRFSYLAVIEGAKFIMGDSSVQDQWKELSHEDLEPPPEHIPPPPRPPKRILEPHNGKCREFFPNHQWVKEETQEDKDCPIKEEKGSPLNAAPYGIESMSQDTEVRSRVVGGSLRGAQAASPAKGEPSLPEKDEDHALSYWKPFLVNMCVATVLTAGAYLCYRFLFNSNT
GBA3: Cytosolic beta-glucosidase (GBA3, Homo sapiens, UniProt Q9H227)
UniProt Q9H227, sequence (whole entry, looked up): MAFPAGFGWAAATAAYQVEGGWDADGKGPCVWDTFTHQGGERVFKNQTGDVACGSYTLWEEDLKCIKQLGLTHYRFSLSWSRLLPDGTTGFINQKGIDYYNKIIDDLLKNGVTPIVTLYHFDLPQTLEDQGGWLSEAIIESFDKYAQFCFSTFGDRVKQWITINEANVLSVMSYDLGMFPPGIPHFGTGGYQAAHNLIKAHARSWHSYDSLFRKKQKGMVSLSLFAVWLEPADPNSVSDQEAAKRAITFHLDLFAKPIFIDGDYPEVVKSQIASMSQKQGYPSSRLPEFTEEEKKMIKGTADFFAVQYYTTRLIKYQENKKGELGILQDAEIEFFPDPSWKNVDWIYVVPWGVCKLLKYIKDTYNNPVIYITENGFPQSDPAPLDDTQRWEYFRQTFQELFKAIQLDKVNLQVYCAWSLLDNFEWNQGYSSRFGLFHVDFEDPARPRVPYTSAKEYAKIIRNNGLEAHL
Drd2: D(2) dopamine receptor (Drd2, Rattus norvegicus, UniProt P61169)
UniProt P61169, sequence (whole entry, looked up): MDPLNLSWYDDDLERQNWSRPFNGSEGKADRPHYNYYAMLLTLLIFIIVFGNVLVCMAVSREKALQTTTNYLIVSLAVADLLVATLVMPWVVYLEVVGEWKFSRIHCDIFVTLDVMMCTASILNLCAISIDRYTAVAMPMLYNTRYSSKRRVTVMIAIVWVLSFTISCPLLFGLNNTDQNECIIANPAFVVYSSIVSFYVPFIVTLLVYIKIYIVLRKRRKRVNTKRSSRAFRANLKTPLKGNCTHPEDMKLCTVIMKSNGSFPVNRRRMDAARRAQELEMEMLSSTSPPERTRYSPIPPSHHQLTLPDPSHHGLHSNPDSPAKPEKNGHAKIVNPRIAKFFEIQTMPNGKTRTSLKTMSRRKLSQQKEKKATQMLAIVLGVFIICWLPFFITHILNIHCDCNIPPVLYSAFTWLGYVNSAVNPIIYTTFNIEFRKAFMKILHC
UniProt P07288, sequence (whole entry, looked up): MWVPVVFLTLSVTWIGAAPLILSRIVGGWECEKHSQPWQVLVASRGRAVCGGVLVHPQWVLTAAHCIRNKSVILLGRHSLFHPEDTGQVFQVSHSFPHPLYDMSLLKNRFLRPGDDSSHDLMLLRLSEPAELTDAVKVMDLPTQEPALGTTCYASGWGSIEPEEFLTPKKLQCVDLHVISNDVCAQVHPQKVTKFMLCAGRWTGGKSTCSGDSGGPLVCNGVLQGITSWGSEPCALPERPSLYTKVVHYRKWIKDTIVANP
UniProt P0DMS8, sequence (whole entry, looked up): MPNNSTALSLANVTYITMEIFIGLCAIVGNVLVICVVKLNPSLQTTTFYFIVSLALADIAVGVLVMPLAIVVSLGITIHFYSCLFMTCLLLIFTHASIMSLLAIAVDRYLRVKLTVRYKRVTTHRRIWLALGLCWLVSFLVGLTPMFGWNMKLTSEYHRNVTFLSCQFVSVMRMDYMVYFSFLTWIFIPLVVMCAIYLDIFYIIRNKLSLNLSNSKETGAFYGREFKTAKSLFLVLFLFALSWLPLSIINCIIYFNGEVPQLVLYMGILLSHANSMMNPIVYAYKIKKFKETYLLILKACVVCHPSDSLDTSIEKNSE
UniProt P48039, sequence (whole entry, looked up): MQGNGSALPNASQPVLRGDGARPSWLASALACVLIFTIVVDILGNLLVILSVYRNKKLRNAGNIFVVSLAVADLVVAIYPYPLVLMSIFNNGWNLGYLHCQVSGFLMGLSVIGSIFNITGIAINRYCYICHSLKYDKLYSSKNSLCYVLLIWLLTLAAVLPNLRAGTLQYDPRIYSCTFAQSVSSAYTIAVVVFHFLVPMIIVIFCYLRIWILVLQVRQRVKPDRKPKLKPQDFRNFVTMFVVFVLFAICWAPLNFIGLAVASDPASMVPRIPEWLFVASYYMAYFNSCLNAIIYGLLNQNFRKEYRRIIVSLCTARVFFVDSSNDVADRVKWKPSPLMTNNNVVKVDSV
UniProt P30542, sequence (whole entry, looked up): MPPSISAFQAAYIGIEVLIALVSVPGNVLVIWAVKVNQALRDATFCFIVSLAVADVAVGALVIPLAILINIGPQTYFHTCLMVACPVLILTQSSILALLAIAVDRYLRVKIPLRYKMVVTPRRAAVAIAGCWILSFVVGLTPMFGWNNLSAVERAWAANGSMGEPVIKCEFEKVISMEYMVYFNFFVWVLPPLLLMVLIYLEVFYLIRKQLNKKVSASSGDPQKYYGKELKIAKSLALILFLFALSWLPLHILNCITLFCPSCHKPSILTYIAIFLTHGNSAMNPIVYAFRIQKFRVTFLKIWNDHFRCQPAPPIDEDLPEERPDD

Compound | target | test | test system | setting | Ki
CCC(=O)NCc1cc(C(=O)NCCN2CCC(OC(=O)C(c3ccccc3)c3ccccc3)CC2)cc(C(=O)NCCN2CCN(CCCCC3CCN(CC(=O)N4c5ccccc5NC(=O)c5ccccc54)CC3)CC2)c1 | CHRM1 | ligand displacement, radioligand |  |  | 0.00417 µM
CC(=O)N[C@@H](CC(=O)O)C(=O)N[C@@H](CCCNC(=N)N)C(=O)N[C@H](C(=O)N[C@H](C=O)CC(=O)O)[C@@H](C)O | CASP3 | enzyme activity, inhibitor, fluorescence |  | pH 7 | 0.0813 µM
CC[C@H](C)[C@H](NC(=O)CN)C(=O)N[C@H](C(=O)N[C@@H](CC(N)=O)C(=O)N[C@H](C(=O)N[C@@H](CC(C)C)C(=O)N[C@@H](CCC(N)=O)C(=O)N[C@@H](CCC(N)=O)C(=O)N[C@@H](Cc1ccc(O)cc1)C(=O)N[C@@H](Cc1ccc(O)cc1)C(=O)N[C@@H](CO)C(=O)N[C@@H](CCC(N)=O)C(=O)N[C@H](C(=O)N[C@@H](CCCNC(=N)N)C(=O)NCC(=O)NCC(=O)N[C@@H](CCCNC(=N)N)C(=O)N[C@@H](CO)C(=O)N[C@@H](C)C(=O)N[C@H](C(=O)N[C@@H](CC(C)C)C(=O)N[C@@H](CO)C(=O)N[C@@H](CO)C(=O)N[C@@H](CC(C)C)C(=O)N1CCC[C@H]1C(=O)N[C@@H](CCCCN)C(=O)N[C@@H](CCC(=O)O)C(=O)N[C@@H](CCC(=O)O)C(=O)N[C@@H](CCC(N)=O)C(=O)N[C@H](C(=O)NCC(=O)N[C@@H](CCC(N)=O)C(=O)N[C@@H](CO)C(=O)N[C@@H](CO)C(=O)N[C@H](C(=O)N[C@@H](CCC(N)=O)C(=O)NCC(=O)N[C@@H](CCC(N)=O)C(=O)N[C@@H](CCC(N)=O)C(=O)N[C@@H](CO)C(=O)N[C@@H](CO)C(=O)N[C@@H](CCCNC(=N)N)C(=O)N[C@@H](CCCNC(=N)N)C(=O)N[C@@H](CCCCN)C(=O)N[C@@H](CCCCN)C(N)=O)[C@@H](C)O)[C@@H](C)CC)C(C)C)C(C)C)[C@@H](C)O)[C@@H](C)CC | Melanocyte-stimulating hormone receptor (MC1R, Homo sapiens, UniProt Q01726) |  | HEK-293T transfected | 2 h, 37 °C, with: Eu-NDP-MSH | > 5 µM
COc1ccc2[nH]c(-c3cccc4ccccc34)c(CCNC(=O)CI)c2n1 | Melatonin receptor type 1A (MTNR1A, Homo sapiens, UniProt P48039) | ligand displacement, radioligand |  | cell membranes | 0.0851 µM
CC(=O)N[C@H](C(=O)N[C@@H](CC(=O)O)C(=O)N[C@H](C(=O)N[C@H](CCN)C(=O)N[C@H](C=O)CC(=O)O)C(C)C)C(C)C | CASP3 | enzyme activity, inhibitor, fluorescence |  | pH 7 | > 100 µM
COc1nccnc1CC(C)C | Male-specific submandibular salivary gland protein (MSP, Mesocricetus auratus, UniProt Q9QXU1) | binding, fluorescence displacement |  | with: 1-AMA 2 µM | ~0.22 µM
C[C@H](CCC(=O)O)[C@H]1CC[C@H]2[C@@H]3[C@H](O)C[C@H]4C[C@H](OC(=O)CCC(=O)O)CC[C@]4(C)[C@H]3CC[C@]12C | SLC10A2 | transporter uptake, inhibitor, radiometric |  |  | 73.9 µM
O=C1Nc2ccccc2N(C(=O)CN2CCC(CCCCN3CCC(OC(=O)C(c4ccccc4)c4ccccc4)CC3)CC2)c2ccccc21 | CHRM3 | ligand displacement, radioligand |  |  | 0.0347 µM
CNc1nc(C#Cc2ccc(Cl)s2)nc2c1ncn2[C@@H]1O[C@H](CO)[C@@H](O)[C@H]1O | Adenosine receptor A3 (ADORA3, Homo sapiens, UniProt P0DMS8) | ligand displacement, radioligand |  | cell membranes | 0.0037 µM
CC(=O)N[C@H](C(=O)N[C@@H](CC(=O)O)C(=O)N[C@H](CCCCN)C(=O)N[C@@H](C)C(=O)N[C@H](C=O)CC(=O)O)C(C)C | CASP3 | enzyme activity, inhibitor, fluorescence |  | pH 7 | > 100 µM
COc1ccc(CCCN[C@@H]2CCC[C@H]2CN[C@@H]2CCC[C@H]2CNCCCCN[C@H]2CCC[C@@H]2CN)cc1 | Amine oxidase [flavin-containing] B (MAOB, Homo sapiens, UniProt P27338) | enzyme activity, inhibitor |  |  | > 500 µM
CCCCOc1ccc(C(=O)OCC[N+]2(C)CC=CCC2)cc1 (stereo not drawn) | CHRM1 | ligand displacement, radioligand |  | cell membranes | 2 µM
O=c1[nH]cnc2c(CNC(CO)COP(=O)(O)O)c[nH]c12 (stereo not drawn) | Hypoxanthine-guanine phosphoribosyltransferase |  |  |  | 1.09 ± 0.26 µM
NCc1cc(C(=O)NCCN2CCC(OC(=O)C(c3ccccc3)c3ccccc3)CC2)cc(C(=O)NCCN2CCN(CCCCC3CCN(CC(=O)N4c5ccccc5NC(=O)c5ccccc54)CC3)CC2)c1 | CHRM1 | ligand displacement, radioligand |  |  | 0.00525 µM
C[C@H](CCC(=O)O)[C@H]1CC[C@H]2[C@@H]3[C@@H](OC(=O)c4ccccc4)C[C@H]4C[C@H](O)CC[C@]4(C)[C@H]3CC[C@]12C | SLC10A2 | transporter uptake, inhibitor, radiometric |  |  | 8.19 µM
CC[C@H](C)[C@H](NC(C)=O)C(=O)N[C@H](C(=O)NCC(=O)N[C@@H](CCCCN)C(=O)N[C@H](C=O)CC(=O)O)[C@@H](C)O | CASP3 | enzyme activity, inhibitor, fluorescence |  | pH 7 | 1.78 µM
Cc1cc2nc3n(c2cc1C)C(C)(C)NC(N)=N3 | Bifunctional dihydrofolate reductase-thymidylate synthase, DHFR domain (Trypanosoma cruzi, UniProt Q27793) | enzyme activity, competitive inhibitor |  | with: dihydrofolate 60 µM, NADPH 100 µM | 1.38 µM
CC1(C)SC(C(CCc2ccccc2)B(O)O)N[C@H]1C(=O)O (stereo partly drawn) | Beta-lactamase (Enterobacter cloacae, UniProt P05364) | enzyme activity, inhibitor | P99 | pH 7.50, 25 °C, with: cephalothin 0.2 mM substrate | 0.62 ± 0.15 µM
O=C1Nc2ccccc2N(C(=O)CN2CCC(CCCCNCCCCC3CCN(CCCN4C(=O)CCc5ccccc54)CC3)CC2)c2ccccc21 | CHRM5 | ligand displacement, radioligand |  |  | 0.0933 µM
C[C@H](CCC(=O)N[C@@H](CCC(=O)Nc1cccc(O)c1)C(=O)O)[C@H]1CC[C@H]2[C@@H]3[C@H](O)C[C@@H]4C[C@H](O)CC[C@]4(C)[C@H]3CC[C@]12C | SLC10A2 | taurocholate uptake, inhibitor | ASBT-MDCK | 10 min, with: taurocholate 2.5 µM | 2.43 µM
CC(C)C[C@@H](C=O)NC(=O)[C@H](CC(=O)O)NC(=O)[C@H](CCCCN)NC(=O)[C@H](CO)NC(=O)[C@H](CO)NC(=O)OCc1ccccc1 | Prostate-specific antigen (Homo sapiens, UniProt P07288) | enzyme activity, inhibitor, fluorescence |  | pH 7.8 | > 1000 µM

Compound | target | test | test system | setting | Ki
CC(C)=CCc1c(O)c(CC=C(C)C)c2occ(-c3ccc(O)c(O)c3)c(=O)c2c1O | Beta-glucuronidase (uidA, Escherichia coli, UniProt P05804) | enzyme activity, inhibitor |  |  | 1.41 µM
CC(C)=CCCC(C)=CCc1c(O)ccc2cc(-c3cc(O)c4ccoc4c3)oc12 | PTPN1 | enzyme activity, inhibitor |  |  | 6.22 µM
O=C1Nc2ccccc2N(C(=O)CN2CCC(CCCCN3CCN(CCOC(=O)C4c5ccccc5Oc5ccccc54)CC3)CC2)c2ccccc21 | CHRM5 | ligand displacement, radioligand |  |  | 0.00339 µM
CC(C)COCCCCCN1C[C@H](O)[C@@H](O)[C@H](O)[C@H]1CO | GBA3 | enzyme activity, inhibitor |  |  | 128 µM
CC(C)=CCc1c(O)cc(O)c2c1O[C@H](c1ccccc1)[C@@H](O)C2=O | PTPN1 | enzyme activity, inhibitor |  |  | 1.61 µM
Clc1cc(OCCCN2CCN(c3cccc4sccc34)CC2)ccc1CN1CCCCC1 | Drd2 | cell-free assay, radioligand |  |  | 0.155 µM
CC(CCC(=O)NC(CCC(=O)Nc1ccc(Cl)nc1)C(=O)O)C1CCC2C3C(O)CC4CC(O)CCC4(C)C3CCC12C (stereo not drawn) | SLC10A2 | taurocholate uptake, inhibitor | ASBT-MDCK | 10 min, with: taurocholate 2.5 µM | 7.92 µM
CC(=O)N[C@H](C(=O)N[C@H](C(=O)N[C@@H](CCN)C(=O)N[C@H](C=O)CC(=O)O)C(C)C)[C@@H](C)O | CASP3 | enzyme activity, inhibitor, fluorescence |  | pH 7 | 37.2 µM
CN1CCC=C(c2nsnc2OCCCCCN2CCN(CCCCCOc3nsnc3C3=CCCN(C)C3)CC2)C1 | CHRM3 | ligand displacement, radioligand |  |  | 0.0501 µM
CCCCCCOc1ccc(C(=O)OCCN2CC=CCC2)cc1 | CHRM5 | ligand displacement, radioligand |  | cell membranes | 6.61 µM
CC(=O)N[C@@H](C)C(=O)N[C@@H](CCCCN)C(=O)N[C@H](C=O)CC(=O)O | CASP3 | enzyme activity, inhibitor, fluorescence |  | pH 7 | > 100 µM
O=C1Nc2ccccc2N(C(=O)CN2CCC(CCCCN3CCN(CCCCOC(=O)C4c5ccccc5Oc5ccccc54)CC3)CC2)c2ccccc21 | CHRM1 | ligand displacement, radioligand |  |  | 0.024 µM
CC(=O)N[C@H](C(=O)N[C@@H](CCCN)C(=O)N[C@H](C=O)CC(=O)O)C(C)C | CASP3 | enzyme activity, inhibitor, fluorescence |  | pH 7 | > 100 µM
NCc1cc(C(=O)NCCN2CCN(CCCCC3CCN(CC(=O)N4c5ccccc5NC(=O)c5ccccc54)CC3)CC2)cc(C(=O)NCCN2CCN(CCCCC3CCN(CC(=O)N4c5ccccc5NC(=O)c5ccccc54)CC3)CC2)c1 | CHRM3 | ligand displacement, radioligand |  |  | 0.0166 µM
FC(F)(F)c1ccc(C(=NOCCCN2CCCCC2)c2ccccc2)cc1 (mixture of isomers) | Sigma non-opioid intracellular receptor 1 (Sigmar1, Rattus norvegicus, UniProt Q9R0C9) | binding |  |  | 0.0561 ± 0.00631 µM
O=c1[nH]cnc2c(CN[C@H](CO)CCP(=O)(O)O)c[nH]c12 | Hypoxanthine-guanine phosphoribosyltransferase |  |  |  | 0.013 ± 0.002 µM
OC[C@@H]1[C@@H](O)[C@H](O)[C@@H](O)CN1CCCCCOCC1CCOC1 (stereo partly drawn) | GBA3 | enzyme activity, inhibitor |  |  | 180 µM
CC1(C)CC(=O)C=C(Sc2nc3cc(Cl)ccc3s2)C1 | Lysine-specific demethylase 4A (KDM4A, Homo sapiens, UniProt O75164) | ligand displacement, FP |  |  | > 200 µM
CC(C)=CCC/C(C)=C/CC/C(=C/COP(=O)(O)OP(=O)(O)O)C(F)(F)F | SC1 (Streptomyces citricolor, UniProt G5EKM9) | inhibitor, radioligand inhibition |  | with: [3H]FDP | 3.9 ± 0.2 µM
CN1CCN(Cc2ccc(OCCCN3CCN(c4cccc5sccc45)CC3)cc2)CC1 | Drd2 | cell-free assay, radioligand |  |  | 0.0862 µM
COc1cccc(-c2c(C#N)c(N)nc(SCc3ncc[nH]3)c2C#N)c1 | Adenosine receptor A1 (ADORA1, Homo sapiens, UniProt P30542) | ligand displacement, radioligand |  | cell membranes | 0.0031 µM

For quick reference, copied from above:
Compound | target | test | test system | setting | Ki
O=c1[nH]cnc2c(CNC(CO)COP(=O)(O)O)c[nH]c12 (stereo not drawn) | Hypoxanthine-guanine phosphoribosyltransferase |  |  |  | 1.09 ± 0.26 µM
NCc1cc(C(=O)NCCN2CCC(OC(=O)C(c3ccccc3)c3ccccc3)CC2)cc(C(=O)NCCN2CCN(CCCCC3CCN(CC(=O)N4c5ccccc5NC(=O)c5ccccc54)CC3)CC2)c1 | CHRM1 | ligand displacement, radioligand |  |  | 0.00525 µM
C[C@H](CCC(=O)O)[C@H]1CC[C@H]2[C@@H]3[C@@H](OC(=O)c4ccccc4)C[C@H]4C[C@H](O)CC[C@]4(C)[C@H]3CC[C@]12C | SLC10A2 | transporter uptake, inhibitor, radiometric |  |  | 8.19 µM
CC[C@H](C)[C@H](NC(C)=O)C(=O)N[C@H](C(=O)NCC(=O)N[C@@H](CCCCN)C(=O)N[C@H](C=O)CC(=O)O)[C@@H](C)O | CASP3 | enzyme activity, inhibitor, fluorescence |  | pH 7 | 1.78 µM
Cc1cc2nc3n(c2cc1C)C(C)(C)NC(N)=N3 | Bifunctional dihydrofolate reductase-thymidylate synthase, DHFR domain (Trypanosoma cruzi, UniProt Q27793) | enzyme activity, competitive inhibitor |  | with: dihydrofolate 60 µM, NADPH 100 µM | 1.38 µM
CC1(C)SC(C(CCc2ccccc2)B(O)O)N[C@H]1C(=O)O (stereo partly drawn) | Beta-lactamase (Enterobacter cloacae, UniProt P05364) | enzyme activity, inhibitor | P99 | pH 7.50, 25 °C, with: cephalothin 0.2 mM substrate | 0.62 ± 0.15 µM
